Experimental data collected from several papers.
Numbered parts are unrelated; each lists some results of a single study.
UniProt P42336, sequence (whole entry, unmodified, looked up): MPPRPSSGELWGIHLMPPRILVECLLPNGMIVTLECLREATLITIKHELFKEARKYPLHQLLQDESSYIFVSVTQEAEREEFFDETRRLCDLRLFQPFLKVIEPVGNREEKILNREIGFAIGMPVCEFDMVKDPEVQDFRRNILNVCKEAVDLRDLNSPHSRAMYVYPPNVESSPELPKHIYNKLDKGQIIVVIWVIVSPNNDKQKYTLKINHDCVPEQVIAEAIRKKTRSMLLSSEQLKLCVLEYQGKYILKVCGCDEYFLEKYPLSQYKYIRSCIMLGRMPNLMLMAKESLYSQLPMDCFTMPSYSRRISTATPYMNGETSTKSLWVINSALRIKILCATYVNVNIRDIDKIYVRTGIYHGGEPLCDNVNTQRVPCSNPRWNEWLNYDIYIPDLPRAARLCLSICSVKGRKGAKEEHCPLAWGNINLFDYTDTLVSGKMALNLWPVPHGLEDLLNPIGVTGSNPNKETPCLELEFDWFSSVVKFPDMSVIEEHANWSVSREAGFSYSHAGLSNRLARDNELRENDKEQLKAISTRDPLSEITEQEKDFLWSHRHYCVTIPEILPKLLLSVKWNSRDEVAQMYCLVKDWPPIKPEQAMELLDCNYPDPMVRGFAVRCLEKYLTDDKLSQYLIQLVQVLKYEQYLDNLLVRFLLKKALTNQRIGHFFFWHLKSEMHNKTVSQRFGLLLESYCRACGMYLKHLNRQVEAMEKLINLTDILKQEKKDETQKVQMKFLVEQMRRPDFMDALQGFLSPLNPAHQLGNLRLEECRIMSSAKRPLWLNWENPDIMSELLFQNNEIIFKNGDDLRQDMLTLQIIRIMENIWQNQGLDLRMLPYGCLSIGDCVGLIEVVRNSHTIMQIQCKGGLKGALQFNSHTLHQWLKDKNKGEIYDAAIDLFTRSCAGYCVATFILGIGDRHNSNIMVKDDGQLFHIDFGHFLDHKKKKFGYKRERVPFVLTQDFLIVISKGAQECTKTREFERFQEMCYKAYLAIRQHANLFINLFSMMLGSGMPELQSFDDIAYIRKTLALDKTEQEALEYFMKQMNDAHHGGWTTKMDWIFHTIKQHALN
UniProt O75582, sequence (whole entry, looked up): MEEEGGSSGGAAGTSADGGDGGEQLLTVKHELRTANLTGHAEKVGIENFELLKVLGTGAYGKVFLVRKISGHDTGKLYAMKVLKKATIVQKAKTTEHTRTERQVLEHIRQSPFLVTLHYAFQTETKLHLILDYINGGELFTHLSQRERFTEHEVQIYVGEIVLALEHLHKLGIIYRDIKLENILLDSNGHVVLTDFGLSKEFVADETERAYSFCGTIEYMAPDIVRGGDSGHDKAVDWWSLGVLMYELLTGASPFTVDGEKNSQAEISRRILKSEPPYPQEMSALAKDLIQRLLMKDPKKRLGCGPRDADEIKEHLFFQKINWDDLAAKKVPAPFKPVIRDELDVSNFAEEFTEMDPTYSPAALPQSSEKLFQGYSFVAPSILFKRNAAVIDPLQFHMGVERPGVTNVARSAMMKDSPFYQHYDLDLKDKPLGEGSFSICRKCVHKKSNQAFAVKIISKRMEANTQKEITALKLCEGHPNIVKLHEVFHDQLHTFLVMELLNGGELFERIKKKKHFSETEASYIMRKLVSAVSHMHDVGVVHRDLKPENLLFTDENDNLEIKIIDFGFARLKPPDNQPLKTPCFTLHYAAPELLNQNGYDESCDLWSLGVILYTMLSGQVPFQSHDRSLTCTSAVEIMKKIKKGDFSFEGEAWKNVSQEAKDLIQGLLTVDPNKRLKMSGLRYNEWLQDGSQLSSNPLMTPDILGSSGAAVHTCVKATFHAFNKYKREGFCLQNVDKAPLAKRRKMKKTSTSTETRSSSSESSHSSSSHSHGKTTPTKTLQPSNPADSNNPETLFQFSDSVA
UniProt O75716, sequence (whole entry, looked up): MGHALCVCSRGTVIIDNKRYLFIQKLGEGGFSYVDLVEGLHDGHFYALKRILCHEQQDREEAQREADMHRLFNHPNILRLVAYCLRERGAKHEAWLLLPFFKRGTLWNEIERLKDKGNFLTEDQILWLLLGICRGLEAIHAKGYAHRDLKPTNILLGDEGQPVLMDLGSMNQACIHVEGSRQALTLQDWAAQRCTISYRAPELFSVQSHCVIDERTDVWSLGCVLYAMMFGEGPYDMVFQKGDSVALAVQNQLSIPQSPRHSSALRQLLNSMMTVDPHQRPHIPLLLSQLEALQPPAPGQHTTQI
UniProt P28221, sequence (whole entry, looked up): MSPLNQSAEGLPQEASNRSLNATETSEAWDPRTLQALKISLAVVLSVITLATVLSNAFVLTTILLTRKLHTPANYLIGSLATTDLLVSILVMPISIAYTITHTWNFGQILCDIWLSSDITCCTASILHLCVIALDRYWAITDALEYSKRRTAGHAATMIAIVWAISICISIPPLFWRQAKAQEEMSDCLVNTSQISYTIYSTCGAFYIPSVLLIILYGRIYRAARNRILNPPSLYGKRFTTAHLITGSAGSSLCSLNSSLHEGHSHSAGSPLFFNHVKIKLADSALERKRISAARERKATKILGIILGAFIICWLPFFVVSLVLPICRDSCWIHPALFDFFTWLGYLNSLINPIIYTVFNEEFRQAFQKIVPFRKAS
UniProt Q9NPC1, sequence (whole entry, looked up): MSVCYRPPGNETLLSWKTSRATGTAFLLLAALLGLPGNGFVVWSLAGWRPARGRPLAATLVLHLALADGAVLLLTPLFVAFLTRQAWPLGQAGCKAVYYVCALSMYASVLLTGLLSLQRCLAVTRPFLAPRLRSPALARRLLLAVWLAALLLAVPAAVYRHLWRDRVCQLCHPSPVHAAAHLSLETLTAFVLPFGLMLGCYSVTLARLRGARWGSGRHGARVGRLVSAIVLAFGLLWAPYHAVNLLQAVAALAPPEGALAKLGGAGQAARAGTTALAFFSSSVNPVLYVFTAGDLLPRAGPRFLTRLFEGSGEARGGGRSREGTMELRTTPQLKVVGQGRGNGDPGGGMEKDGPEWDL
UniProt Q9H2X6, sequence (whole entry, looked up): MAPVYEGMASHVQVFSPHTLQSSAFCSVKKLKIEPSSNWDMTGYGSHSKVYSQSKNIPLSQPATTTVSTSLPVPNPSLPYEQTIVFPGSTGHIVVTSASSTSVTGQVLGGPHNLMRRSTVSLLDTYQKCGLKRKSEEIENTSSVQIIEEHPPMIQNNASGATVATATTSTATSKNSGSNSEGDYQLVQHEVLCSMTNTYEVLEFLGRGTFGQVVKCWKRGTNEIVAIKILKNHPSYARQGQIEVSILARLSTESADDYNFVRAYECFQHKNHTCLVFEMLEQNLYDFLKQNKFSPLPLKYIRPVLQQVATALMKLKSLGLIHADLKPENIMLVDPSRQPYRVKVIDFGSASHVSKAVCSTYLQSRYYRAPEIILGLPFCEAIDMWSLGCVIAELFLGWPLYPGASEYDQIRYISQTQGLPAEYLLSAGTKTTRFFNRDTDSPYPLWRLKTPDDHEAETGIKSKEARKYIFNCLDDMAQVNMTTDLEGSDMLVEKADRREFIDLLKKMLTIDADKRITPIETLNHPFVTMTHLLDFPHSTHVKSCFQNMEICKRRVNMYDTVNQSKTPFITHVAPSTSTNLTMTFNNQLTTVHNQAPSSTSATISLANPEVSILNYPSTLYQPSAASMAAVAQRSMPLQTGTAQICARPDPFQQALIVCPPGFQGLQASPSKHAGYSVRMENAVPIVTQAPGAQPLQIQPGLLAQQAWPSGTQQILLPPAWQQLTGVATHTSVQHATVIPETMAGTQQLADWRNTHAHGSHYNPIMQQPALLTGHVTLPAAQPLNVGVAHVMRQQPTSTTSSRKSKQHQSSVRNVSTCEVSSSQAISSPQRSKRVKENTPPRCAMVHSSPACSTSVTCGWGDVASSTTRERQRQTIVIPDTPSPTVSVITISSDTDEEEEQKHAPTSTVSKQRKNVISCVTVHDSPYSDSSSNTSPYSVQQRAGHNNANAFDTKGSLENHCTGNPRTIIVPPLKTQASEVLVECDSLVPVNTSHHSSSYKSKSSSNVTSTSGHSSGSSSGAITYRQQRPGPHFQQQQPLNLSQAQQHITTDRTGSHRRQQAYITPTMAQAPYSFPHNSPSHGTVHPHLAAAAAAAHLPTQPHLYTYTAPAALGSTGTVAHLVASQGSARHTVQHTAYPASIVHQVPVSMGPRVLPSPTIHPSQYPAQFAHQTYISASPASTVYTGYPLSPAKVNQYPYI
UniProt Q96PF2, sequence (whole entry, looked up): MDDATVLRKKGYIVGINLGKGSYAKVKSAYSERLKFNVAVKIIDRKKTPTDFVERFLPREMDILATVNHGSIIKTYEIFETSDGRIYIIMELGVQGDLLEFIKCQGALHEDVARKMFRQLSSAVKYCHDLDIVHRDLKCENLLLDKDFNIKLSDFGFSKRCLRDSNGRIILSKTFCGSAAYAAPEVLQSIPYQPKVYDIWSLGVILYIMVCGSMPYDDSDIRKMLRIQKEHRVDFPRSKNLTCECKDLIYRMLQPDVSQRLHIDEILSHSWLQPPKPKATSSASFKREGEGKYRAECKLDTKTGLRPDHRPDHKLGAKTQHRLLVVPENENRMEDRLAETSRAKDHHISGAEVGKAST

Series 1 — concentration: 0.1 µM; endpoint: remaining binding
SMILES: C[C@@H]1CN(c2cc(-c3n[nH]c4ccc(OC5(C)CC5)cc34)ncn2)C[C@H](C)O1
target = Phosphatidylinositol 4-kinase beta (PI4KB, Homo sapiens, UniProt Q9UBF8); read-out = cell-free assay; method = competition with immobilised ligand; value = 100%
target = Protein-tyrosine kinase 2-beta (PTK2B, Homo sapiens, UniProt Q14289); read-out = cell-free assay; method = competition with immobilised ligand; value = 100%
target = Ribosomal protein S6 kinase alpha-2, N-terminal kinase domain (RPS6KA2, Homo sapiens, UniProt Q15349); read-out = cell-free assay; method = competition with immobilised ligand; value = 92%
target = Phosphatidylinositol 4,5-bisphosphate 3-kinase catalytic subunit alpha isoform (PIK3CA, Homo sapiens, UniProt P42336, Q546K); read-out = cell-free assay; method = competition with immobilised ligand; value = 69%
target = Serine/threonine-protein kinase PLK1 (PLK1, Homo sapiens, UniProt P53350); read-out = cell-free assay; method = competition with immobilised ligand; value = 68%
target = Serine/threonine-protein kinase PAK 6 (PAK6, Homo sapiens, UniProt Q9NQU5); read-out = cell-free assay; method = competition with immobilised ligand; value = 100%
target = Phosphatidylinositol 4-phosphate 3-kinase C2 domain-containing subunit beta (PIK3C2B, Homo sapiens, UniProt O00750); read-out = cell-free assay; method = competition with immobilised ligand; value = 66%
target = Tyrosine-protein kinase ABL1, phosphorylated (ABL1, Homo sapiens, UniProt P00519, Q252H); read-out = cell-free assay; method = competition with immobilised ligand; value = 64%
target = Tyrosine-protein kinase receptor TYRO3 (TYRO3, Homo sapiens, UniProt Q06418); read-out = cell-free assay; method = competition with immobilised ligand; value = 100%
target = 5'-AMP-activated protein kinase catalytic subunit alpha-1 (PRKAA1, Homo sapiens, UniProt Q13131); read-out = cell-free assay; method = competition with immobilised ligand; value = 86%
target = Interleukin-1 receptor-associated kinase 4 (IRAK4, Homo sapiens, UniProt Q9NWZ3); read-out = cell-free assay; method = competition with immobilised ligand; value = 90%
target = Tyrosine-protein kinase ABL1, phosphorylated (ABL1, Homo sapiens, UniProt P00519, F317L); read-out = cell-free assay; method = competition with immobilised ligand; value = 82%
target = Phosphatidylinositol 4,5-bisphosphate 3-kinase catalytic subunit alpha isoform (PIK3CA, Homo sapiens, UniProt P42336, M1043I); read-out = cell-free assay; method = competition with immobilised ligand; value = 82%
target = Serine/threonine-protein kinase 36 (STK36, Homo sapiens, UniProt Q9NRP7); read-out = cell-free assay; method = competition with immobilised ligand; value = 86%
target = BMP-2-inducible protein kinase (BMP2K, Homo sapiens, UniProt Q9NSY1); read-out = cell-free assay; method = competition with immobilised ligand; value = 100%
target = SNF-related serine/threonine-protein kinase (SNRK, Homo sapiens, UniProt Q9NRH2); read-out = cell-free assay; method = competition with immobilised ligand; value = 94%
target = Serine/threonine-protein kinase MRCK gamma (CDC42BPG, Homo sapiens, UniProt Q6DT37); method = competition binding; value = 89%
target = Ribosomal protein S6 kinase alpha-5, N-terminal kinase domain (RPS6KA5, Homo sapiens, UniProt O75582); read-out = cell-free assay; method = competition with immobilised ligand; value = 97%
target = Cyclin-dependent kinase 19 (CDK19, Homo sapiens, UniProt Q9BWU1); method = competition binding; value = 70%

Series 2 — read-out: enzyme activity; action: inhibitor; concentration: 0.5 µM; relative to: control; endpoint: remaining activity
Compound: CS(=O)(=O)CCNCc1ccc(-c2ccc3ncnc(Nc4ccc(OCc5cccc(F)c5)c(Cl)c4)c3c2)o1
target = Homeodomain-interacting protein kinase 2 (HIPK2, Homo sapiens, UniProt Q9H2X6); value = 104%
target = Cyclin-dependent kinase 1, with cyclin B (CDK1, Homo sapiens, UniProt P06493); value = 100%
target = Tyrosine-protein kinase ABL1 (ABL1, Homo sapiens, UniProt P00519); value = 96.4%
target = Dual specificity tyrosine-phosphorylation-regulated kinase 3 (DYRK3, Homo sapiens, UniProt O43781); value = 90.2%
target = Tyrosine-protein kinase Srms (SRMS, Homo sapiens, UniProt Q9H3Y6); value = 97.9%
target = cAMP-dependent protein kinase catalytic subunit gamma (PRKACG, Homo sapiens, UniProt P22612); value = 110%
target = Ribosomal protein S6 kinase alpha-5 (RPS6KA5, Homo sapiens, UniProt O75582); value = 98.3%
target = Phosphorylase b kinase gamma catalytic chain, skeletal muscle/heart isoform (PHKG1, Homo sapiens, UniProt Q16816); value = 95.7%
target = Cyclin-dependent kinase 6, with cyclin D3 (CDK6, Homo sapiens, UniProt Q00534); value = 120%
target = Ephrin type-B receptor 4 (EPHB4, Homo sapiens, UniProt P54760); value = 94.1%
target = Serine/threonine-protein kinase 16 (STK16, Homo sapiens, UniProt O75716); value = 97.1%
target = Homeodomain-interacting protein kinase 4 (HIPK4, Homo sapiens, UniProt Q8NE63); value = 108%
target = Serine/threonine-protein kinase WNK3 (WNK3, Homo sapiens, UniProt Q9BYP7); value = 104%
target = Tyrosine-protein kinase Blk (BLK, Homo sapiens, UniProt P51451); value = 95.9%
target = Serine/threonine-protein kinase 17A (STK17A, Homo sapiens, UniProt Q9UEE5); value = 89.7%
target = Testis-specific serine/threonine-protein kinase 2 (TSSK2, Homo sapiens, UniProt Q96PF2); value = 89.9%
target = MAP kinase-activated protein kinase 3 (MAPKAPK3, Homo sapiens, UniProt Q16644); value = 103%

Series 3 — Structure (SMILES): CC(C)CN(C)c1nc(N)c(C(=O)N=C(N)N)nc1Cl; read-out: β-arrestin recruitment; action: agonist; method: PRESTO-Tango; concentration: 10 µM; relative to: untreated; endpoint: fold over basal
target = 5-hydroxytryptamine receptor 1D (HTR1D, Homo sapiens, UniProt P28221); value = 0.96
target = 5-hydroxytryptamine receptor 6 (HTR6, Homo sapiens, UniProt P50406); value = 0.63
target = Proteinase-activated receptor 2 (F2RL1, Homo sapiens, UniProt P55085); value = 1.24
target = Trace amine-associated receptor 5 (TAAR5, Homo sapiens, UniProt O14804); value = 1.55 fold
target = G-protein coupled estrogen receptor 1 (GPER1, Homo sapiens, UniProt Q99527); value = 0.68
target = Alpha-2A adrenergic receptor (ADRA2A, Homo sapiens, UniProt P08913); value = 0.31
target = Muscarinic acetylcholine receptor M5 (CHRM5, Homo sapiens, UniProt P08912); value = 0.97
target = P2Y purinoceptor 4 (P2RY4, Homo sapiens, UniProt P51582); value = 0.88
target = Vasopressin V1a receptor (AVPR1A, Homo sapiens, UniProt P37288); value = 1.39
target = Vasopressin V2 receptor (AVPR2, Homo sapiens, UniProt P30518); value = 0.8
target = CX3C chemokine receptor 1 (CX3CR1, Homo sapiens, UniProt P49238); value = 0.82
target = Sphingosine 1-phosphate receptor 2 (S1PR2, Homo sapiens, UniProt O95136); value = 0.74
target = Neuromedin-B receptor (NMBR, Homo sapiens, UniProt P28336); value = 0.88
target = C-X-C chemokine receptor type 5 (CXCR5, Homo sapiens, UniProt P32302); value = 0.84
target = Alpha-1D adrenergic receptor (ADRA1D, Homo sapiens, UniProt P25100); value = 0.87
target = Glucagon-like peptide 1 receptor (GLP1R, Homo sapiens, UniProt P43220); value = 0.4 fold
target = Leukotriene B4 receptor 2, isoform b (LTB4R2, Homo sapiens, UniProt Q9NPC1); value = 0.63

Series 4 — read-out: enzyme activity; action: inhibitor; concentration: 10 µM; endpoint: inhibition
Target: Calcium/calmodulin-dependent protein kinase type II subunit alpha (CAMK2A, Homo sapiens, UniProt Q9UQM7)
UniProt Q9UQM7, sequence (whole entry, looked up): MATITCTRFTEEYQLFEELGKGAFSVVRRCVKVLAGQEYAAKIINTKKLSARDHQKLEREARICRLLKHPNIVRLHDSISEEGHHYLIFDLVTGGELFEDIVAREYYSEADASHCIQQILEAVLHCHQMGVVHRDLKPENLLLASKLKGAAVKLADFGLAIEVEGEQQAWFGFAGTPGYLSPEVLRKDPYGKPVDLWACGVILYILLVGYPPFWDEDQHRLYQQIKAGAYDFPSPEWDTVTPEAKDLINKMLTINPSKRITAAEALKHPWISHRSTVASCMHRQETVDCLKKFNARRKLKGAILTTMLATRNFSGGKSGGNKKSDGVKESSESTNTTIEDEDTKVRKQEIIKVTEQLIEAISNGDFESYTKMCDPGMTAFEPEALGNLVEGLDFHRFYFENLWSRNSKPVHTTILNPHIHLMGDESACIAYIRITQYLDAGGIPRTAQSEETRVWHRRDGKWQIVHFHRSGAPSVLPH
Compound = CC1(C)CCCC2(C)OC(=O)C=C12 (racemic); value = 26%
Compound = CCCCC/C=C/C/C=C/CCCCCCCCCC(=O)O; value = -16%
Compound = CCCCCN(C)CCC(O)(P(=O)(O)O)P(=O)(O)O; value = -11%
Compound = CCCCCCCC/C=C\CCCCCCCC(=O)OC[C@H](COP(=O)(O)O)OC(=O)CCCCCCC/C=C\CCCCCCCC; value = 30%
Compound = CC(=O)c1c(O)cccc1O; value = -12%
Compound = NC(=O)C1(N2CCCCC2)CCN(CCCC(=O)c2ccc(F)cc2)CC1; value = -3%
Compound = CCC(C)(Oc1ccc(C2(c3ccc(OC(C)(CC)C(=O)O)cc3)CCCCC2)cc1)C(=O)O (centres unmarked); value = -7%
Compound = O=C(O)c1cc(=O)c2cccc(O)c2[nH]1; value = -8%
Compound = O=C(O)[C@H]1CC[C@H](O)CC1; value = -111%
Compound = C/C=C(/C)C(=O)O[C@@H]1[C@H](OC(=O)CC(C)C)c2c(ccc3ccc(=O)oc23)OC1(C)C; value = 24%
Compound = Cc1onc(-c2ccccc2)c1-c1ccc(S(N)(=O)=O)cc1; value = -6%
Compound = Cc1cc2c(cc1S(N)(=O)=O)S(=O)(=O)CCC2; value = -10%

A few entries again (series 1):
target = Serine/threonine-protein kinase PAK 6 (PAK6, Homo sapiens, UniProt Q9NQU5); read-out = cell-free assay; method = competition with immobilised ligand; value = 100%
target = Phosphatidylinositol 4-phosphate 3-kinase C2 domain-containing subunit beta (PIK3C2B, Homo sapiens, UniProt O00750); read-out = cell-free assay; method = competition with immobilised ligand; value = 66%
target = Tyrosine-protein kinase ABL1, phosphorylated (ABL1, Homo sapiens, UniProt P00519, Q252H); read-out = cell-free assay; method = competition with immobilised ligand; value = 64%
target = Tyrosine-protein kinase receptor TYRO3 (TYRO3, Homo sapiens, UniProt Q06418); read-out = cell-free assay; method = competition with immobilised ligand; value = 100%
target = 5'-AMP-activated protein kinase catalytic subunit alpha-1 (PRKAA1, Homo sapiens, UniProt Q13131); read-out = cell-free assay; method = competition with immobilised ligand; value = 86%
target = Interleukin-1 receptor-associated kinase 4 (IRAK4, Homo sapiens, UniProt Q9NWZ3); read-out = cell-free assay; method = competition with immobilised ligand; value = 90%
target = Tyrosine-protein kinase ABL1, phosphorylated (ABL1, Homo sapiens, UniProt P00519, F317L); read-out = cell-free assay; method = competition with immobilised ligand; value = 82%
target = Phosphatidylinositol 4,5-bisphosphate 3-kinase catalytic subunit alpha isoform (PIK3CA, Homo sapiens, UniProt P42336, M1043I); read-out = cell-free assay; method = competition with immobilised ligand; value = 82%
target = Serine/threonine-protein kinase 36 (STK36, Homo sapiens, UniProt Q9NRP7); read-out = cell-free assay; method = competition with immobilised ligand; value = 86%
target = BMP-2-inducible protein kinase (BMP2K, Homo sapiens, UniProt Q9NSY1); read-out = cell-free assay; method = competition with immobilised ligand; value = 100%
target = SNF-related serine/threonine-protein kinase (SNRK, Homo sapiens, UniProt Q9NRH2); read-out = cell-free assay; method = competition with immobilised ligand; value = 94%
